Measurements gathered from unrelated publications.
Each numbered part is a random draw from the data of one study; scales do not carry over between parts. Values joined by “and” are separate records of one study, mostly repeats; a detail may differ.
UniProt P41279, sequence (whole entry, looked up): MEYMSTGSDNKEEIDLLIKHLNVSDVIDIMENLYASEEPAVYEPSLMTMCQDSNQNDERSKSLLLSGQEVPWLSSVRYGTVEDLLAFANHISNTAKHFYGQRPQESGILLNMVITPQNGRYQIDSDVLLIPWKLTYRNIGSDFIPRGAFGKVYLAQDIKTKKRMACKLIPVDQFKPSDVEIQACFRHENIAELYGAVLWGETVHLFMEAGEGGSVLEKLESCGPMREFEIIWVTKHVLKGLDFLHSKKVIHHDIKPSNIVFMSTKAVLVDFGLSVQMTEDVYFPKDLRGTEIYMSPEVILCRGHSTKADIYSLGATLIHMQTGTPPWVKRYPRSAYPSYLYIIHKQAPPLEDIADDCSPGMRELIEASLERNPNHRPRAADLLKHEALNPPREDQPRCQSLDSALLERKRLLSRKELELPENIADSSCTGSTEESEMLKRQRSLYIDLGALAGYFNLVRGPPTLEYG
UniProt Q8IU85, sequence (whole entry, looked up): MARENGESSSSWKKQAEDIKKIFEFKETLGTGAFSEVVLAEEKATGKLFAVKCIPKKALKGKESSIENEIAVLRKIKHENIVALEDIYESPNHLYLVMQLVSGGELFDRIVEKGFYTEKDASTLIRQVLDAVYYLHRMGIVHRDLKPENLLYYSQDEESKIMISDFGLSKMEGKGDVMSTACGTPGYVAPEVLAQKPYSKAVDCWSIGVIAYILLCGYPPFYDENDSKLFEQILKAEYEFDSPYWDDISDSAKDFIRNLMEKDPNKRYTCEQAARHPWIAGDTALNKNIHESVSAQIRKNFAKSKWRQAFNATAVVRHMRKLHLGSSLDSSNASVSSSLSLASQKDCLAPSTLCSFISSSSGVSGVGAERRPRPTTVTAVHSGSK
UniProt P50613, sequence (whole entry, looked up): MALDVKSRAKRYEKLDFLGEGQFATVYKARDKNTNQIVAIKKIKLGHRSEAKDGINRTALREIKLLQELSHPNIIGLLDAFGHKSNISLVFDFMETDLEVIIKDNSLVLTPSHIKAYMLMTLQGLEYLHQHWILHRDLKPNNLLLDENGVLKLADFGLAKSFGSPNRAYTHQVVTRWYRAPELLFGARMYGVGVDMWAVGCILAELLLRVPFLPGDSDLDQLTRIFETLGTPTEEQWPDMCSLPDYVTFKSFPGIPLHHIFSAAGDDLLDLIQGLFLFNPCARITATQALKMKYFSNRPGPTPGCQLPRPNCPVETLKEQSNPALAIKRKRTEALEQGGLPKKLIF
UniProt Q9NR20, sequence (whole entry, looked up): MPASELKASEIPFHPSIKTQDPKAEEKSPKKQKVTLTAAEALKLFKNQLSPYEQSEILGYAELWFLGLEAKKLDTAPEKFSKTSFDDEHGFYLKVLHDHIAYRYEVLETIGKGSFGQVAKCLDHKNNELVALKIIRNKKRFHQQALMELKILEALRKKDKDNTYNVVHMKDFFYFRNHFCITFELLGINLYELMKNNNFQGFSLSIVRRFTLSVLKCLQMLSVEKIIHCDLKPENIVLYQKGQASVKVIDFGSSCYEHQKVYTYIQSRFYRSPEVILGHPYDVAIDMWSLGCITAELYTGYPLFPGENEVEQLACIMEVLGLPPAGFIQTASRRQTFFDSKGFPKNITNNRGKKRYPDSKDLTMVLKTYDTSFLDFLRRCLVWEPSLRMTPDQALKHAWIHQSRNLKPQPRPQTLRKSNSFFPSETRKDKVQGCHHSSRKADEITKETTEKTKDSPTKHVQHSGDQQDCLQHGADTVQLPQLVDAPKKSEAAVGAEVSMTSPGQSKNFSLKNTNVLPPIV
UniProt Q09013, sequence (whole entry, looked up): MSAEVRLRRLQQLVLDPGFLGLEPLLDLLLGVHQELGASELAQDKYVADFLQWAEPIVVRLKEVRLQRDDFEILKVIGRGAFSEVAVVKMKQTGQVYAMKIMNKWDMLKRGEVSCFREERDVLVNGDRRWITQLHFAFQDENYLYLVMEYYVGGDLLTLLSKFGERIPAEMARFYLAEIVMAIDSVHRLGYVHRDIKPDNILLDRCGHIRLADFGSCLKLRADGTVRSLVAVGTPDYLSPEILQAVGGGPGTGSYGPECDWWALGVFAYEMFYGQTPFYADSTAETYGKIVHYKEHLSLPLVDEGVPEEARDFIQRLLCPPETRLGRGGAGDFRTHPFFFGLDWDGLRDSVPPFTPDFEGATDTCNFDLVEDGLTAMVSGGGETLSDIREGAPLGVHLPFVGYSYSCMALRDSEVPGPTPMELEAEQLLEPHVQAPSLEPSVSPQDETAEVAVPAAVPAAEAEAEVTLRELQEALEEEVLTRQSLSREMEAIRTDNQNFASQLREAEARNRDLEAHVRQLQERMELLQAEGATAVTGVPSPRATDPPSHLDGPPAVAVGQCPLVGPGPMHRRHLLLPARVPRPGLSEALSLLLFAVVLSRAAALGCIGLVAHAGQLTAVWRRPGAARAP

Set 1 — SMILES: O=c1cc(N2CCOCC2)oc2c1ccc1ccccc12; observed: enzyme activity; mode: inhibitor; concentration: 0.5 µM; reference: control
target | remaining activity
Serine/threonine-protein kinase BRSK1 (BRSK1, Homo sapiens, UniProt Q8TDC3) | 100%
Casein kinase II subunit alpha' (CSNK2A2, Homo sapiens, UniProt P19784) | 78.6%
Serine/threonine-protein kinase N2 (PKN2, Homo sapiens, UniProt Q16513) | 93.2%
Aurora kinase A (AURKA, Homo sapiens, UniProt O14965) | 98%
Protein-tyrosine kinase 2-beta (PTK2B, Homo sapiens, UniProt Q14289) | 94.3%
Proto-oncogene tyrosine-protein kinase ROS (ROS1, Homo sapiens, UniProt P08922) | 97%
Serine/threonine-protein kinase Nek9 (NEK9, Homo sapiens, UniProt Q8TD19) | 102%
Proto-oncogene tyrosine-protein kinase receptor Ret (RET, Homo sapiens, UniProt P07949) | 99.8%
Calcium/calmodulin-dependent protein kinase type 1D (CAMK1D, Homo sapiens, UniProt Q8IU85) | 91.1%
Rho-associated protein kinase 2 (ROCK2, Homo sapiens, UniProt O75116) | 95.9%
G protein-coupled receptor kinase 5 (GRK5, Homo sapiens, UniProt P34947) | 106%
Calcium/calmodulin-dependent protein kinase type 1G (CAMK1G, Homo sapiens, UniProt Q96NX5) | 102%
NT-3 growth factor receptor (NTRK3, Homo sapiens, UniProt Q16288) | 103%
Mitogen-activated protein kinase 10 (MAPK10, Homo sapiens, UniProt P53779) | 73.8%
Myotonin-protein kinase (DMPK, Homo sapiens, UniProt Q09013) | 105%
Cyclin-dependent kinase 2, with cyclin A (CDK2, Homo sapiens, UniProt P24941) | 100%
STE20-like serine/threonine-protein kinase (SLK, Homo sapiens, UniProt Q9H2G2) | 102%
Dual specificity tyrosine-phosphorylation-regulated kinase 4 (DYRK4, Homo sapiens, UniProt Q9NR20) | 91.9%
Epidermal growth factor receptor (EGFR, Homo sapiens, UniProt P00533) | 96.2%
Mitogen-activated protein kinase kinase kinase 2 (MAP3K2, Homo sapiens, UniProt Q9Y2U5) | 109%
Mitogen-activated protein kinase kinase kinase 8 (MAP3K8, Homo sapiens, UniProt P41279) | 98.3%
Homeodomain-interacting protein kinase 3 (HIPK3, Homo sapiens, UniProt Q9H422) | 107%
Cyclin-dependent kinase 7 (CDK7, Homo sapiens, UniProt P50613) | 98.2%
Serine/threonine-protein kinase D1 (PRKD1, Homo sapiens, UniProt Q15139) | 102%

Set 2 — observed: ATPase activity; concentration: concentration not given; notes: average; together with: with ssDNA
Target: DNA polymerase theta, helicase domain (POLQ, Homo sapiens, UniProt O75417)
UniProt O75417, sequence (whole entry, looked up): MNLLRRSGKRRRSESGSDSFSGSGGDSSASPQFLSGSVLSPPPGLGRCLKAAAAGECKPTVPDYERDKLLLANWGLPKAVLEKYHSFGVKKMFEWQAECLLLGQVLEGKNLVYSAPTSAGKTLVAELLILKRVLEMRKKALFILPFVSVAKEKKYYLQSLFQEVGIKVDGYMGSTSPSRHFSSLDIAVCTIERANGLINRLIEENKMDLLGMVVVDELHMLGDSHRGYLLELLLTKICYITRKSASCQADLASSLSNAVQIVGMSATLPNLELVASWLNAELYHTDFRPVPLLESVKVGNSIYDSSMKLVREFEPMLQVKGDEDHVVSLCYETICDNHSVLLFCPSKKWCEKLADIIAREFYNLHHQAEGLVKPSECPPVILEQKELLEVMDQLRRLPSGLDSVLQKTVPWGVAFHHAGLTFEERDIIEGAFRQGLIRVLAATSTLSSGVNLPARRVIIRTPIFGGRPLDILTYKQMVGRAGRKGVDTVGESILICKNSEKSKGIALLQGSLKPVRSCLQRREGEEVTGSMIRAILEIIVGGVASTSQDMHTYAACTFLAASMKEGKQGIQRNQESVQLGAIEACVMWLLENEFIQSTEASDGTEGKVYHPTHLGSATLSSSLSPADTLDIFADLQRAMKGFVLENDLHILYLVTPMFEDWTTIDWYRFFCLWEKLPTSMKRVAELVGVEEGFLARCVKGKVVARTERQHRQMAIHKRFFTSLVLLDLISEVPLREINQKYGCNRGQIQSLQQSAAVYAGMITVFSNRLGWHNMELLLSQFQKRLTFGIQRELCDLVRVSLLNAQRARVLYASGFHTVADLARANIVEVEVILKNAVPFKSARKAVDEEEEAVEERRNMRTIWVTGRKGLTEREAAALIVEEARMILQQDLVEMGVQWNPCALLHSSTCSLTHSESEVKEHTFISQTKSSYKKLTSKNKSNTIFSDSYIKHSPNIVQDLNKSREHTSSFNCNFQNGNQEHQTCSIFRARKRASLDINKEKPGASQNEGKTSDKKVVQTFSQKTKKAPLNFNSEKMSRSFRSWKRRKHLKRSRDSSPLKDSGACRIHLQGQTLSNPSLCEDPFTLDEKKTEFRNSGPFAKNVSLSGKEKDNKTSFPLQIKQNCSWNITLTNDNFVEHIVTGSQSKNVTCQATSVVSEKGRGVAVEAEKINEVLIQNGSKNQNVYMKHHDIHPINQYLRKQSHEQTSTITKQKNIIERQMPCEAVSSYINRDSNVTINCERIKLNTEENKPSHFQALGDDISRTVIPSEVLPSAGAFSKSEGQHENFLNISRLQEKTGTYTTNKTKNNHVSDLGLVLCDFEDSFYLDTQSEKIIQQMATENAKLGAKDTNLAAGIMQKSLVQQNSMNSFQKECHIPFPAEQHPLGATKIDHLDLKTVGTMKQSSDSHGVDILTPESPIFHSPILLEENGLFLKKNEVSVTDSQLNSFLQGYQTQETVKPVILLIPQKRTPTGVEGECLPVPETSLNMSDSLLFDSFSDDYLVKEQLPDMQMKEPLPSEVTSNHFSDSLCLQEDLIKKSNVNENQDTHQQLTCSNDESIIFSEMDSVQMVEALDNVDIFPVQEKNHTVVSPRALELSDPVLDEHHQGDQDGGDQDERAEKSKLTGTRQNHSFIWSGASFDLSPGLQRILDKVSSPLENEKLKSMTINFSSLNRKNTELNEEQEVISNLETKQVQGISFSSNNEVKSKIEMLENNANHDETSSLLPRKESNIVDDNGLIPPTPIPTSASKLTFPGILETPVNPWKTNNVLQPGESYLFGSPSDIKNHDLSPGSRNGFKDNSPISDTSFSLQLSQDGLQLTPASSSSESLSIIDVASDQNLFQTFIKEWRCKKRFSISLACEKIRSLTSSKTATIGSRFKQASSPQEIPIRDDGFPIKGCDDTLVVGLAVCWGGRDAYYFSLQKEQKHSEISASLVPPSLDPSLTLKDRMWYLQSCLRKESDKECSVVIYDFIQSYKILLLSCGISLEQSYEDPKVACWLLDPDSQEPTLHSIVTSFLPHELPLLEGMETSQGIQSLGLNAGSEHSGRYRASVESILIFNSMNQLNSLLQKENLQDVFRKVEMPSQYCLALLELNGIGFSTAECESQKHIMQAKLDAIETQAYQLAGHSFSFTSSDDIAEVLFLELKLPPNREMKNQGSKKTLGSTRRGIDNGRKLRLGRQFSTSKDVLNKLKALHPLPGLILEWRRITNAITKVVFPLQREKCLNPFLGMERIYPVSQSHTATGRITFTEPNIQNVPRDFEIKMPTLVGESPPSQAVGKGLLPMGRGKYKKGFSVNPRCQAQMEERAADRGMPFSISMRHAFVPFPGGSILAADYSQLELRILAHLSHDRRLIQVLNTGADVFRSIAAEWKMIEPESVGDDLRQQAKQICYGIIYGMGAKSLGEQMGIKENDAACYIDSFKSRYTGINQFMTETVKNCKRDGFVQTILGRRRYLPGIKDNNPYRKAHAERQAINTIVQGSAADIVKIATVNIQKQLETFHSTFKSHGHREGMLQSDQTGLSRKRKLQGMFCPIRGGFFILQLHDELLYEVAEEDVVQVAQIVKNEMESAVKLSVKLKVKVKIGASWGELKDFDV
Structure (SMILES) | remaining activity [%]
Cc1nc(N=Nc2cc(S(=O)(=O)O)c3cc([N+](=O)[O-])cc(S(=O)(=O)O)c3c2)c(COP(=O)(O)O)c(C=O)c1O | 46.6
CCC(C)(Oc1ccc(C2(c3ccc(OC(C)(CC)C(=O)O)cc3)CCCCC2)cc1)C(=O)O (centres unmarked) | 66.2
COc1cc(NC(=O)CSc2ncc(S(=O)(=O)c3ccc(Br)cc3)c(=O)[nH]2)cc(OC)c1 | 79.5
COc1cccc2c1C(=O)c1c(O)c3c(c(O)c1C2=O)C[C@@](O)(C(=O)CO)C[C@@H]3O[C@H]1C[C@H](N)[C@@H](O)[C@H](C)O1 | 46.5
Cc1noc(C)c1S(=O)(=O)Nc1ccc(C(=O)Nc2ccc(Br)cc2)cc1 | 56.4
O=C(Nc1cc2cc[nH]c2cn1)c1ccccc1 | 55.3
CCOc1ccccc1NC(=O)CSc1ncc(S(=O)(=O)c2ccc(C(C)(C)C)cc2)c(=O)[nH]1 | 69.7
O=C(O)[C@]1(Cc2cccc(Nc3nccs3)n2)CC[C@@H](Oc2cccc(Cl)c2F)CC1 | 55.6
CCCCCCCCCCCCc1ccc(S(=O)(=O)Nc2nncs2)cc1 | 103
O=C(O)C1=CC(=C(c2ccc(O)c(C(=O)O)c2)c2ccc(O)c(C(=O)O)c2)C=CC1=O | 3.72
Cc1ccc(-c2n[nH]c3c2C(c2ccccc2Cl)N(c2ccc(C(=O)O)cc2)C3=O)cc1 (centres unmarked) | 76

Set 3 — cell line: mouse MPNST tumor cells; method: high-content nuclear imaging; item: cell number; concentration: 10 µM; time: 12 h; notes: mean of 2 replicates; reference: plate mean; direction: higher = more cells
SMILES | nuclei count
CC(C[N+](C)(C)C)OC(N)=O (centres unmarked) | 1.43 z-score
COc1ccc(S(=O)(=O)Nc2cccnc2Nc2ccc(O)cc2)cc1 | -4.89 z-score
CC(C)(C)C(=O)C(Oc1ccc(Cl)cc1)n1ccnc1 (centres unmarked) | 0.215 z-score
N[C@@H](Cc1cc(I)c(Oc2ccc(O)c(I)c2)c(I)c1)C(=O)O | 0.205 z-score and 2.16 z-score
Cc1nnc(C(C)C)n1C1C[C@H]2CC[C@@H](C1)N2CC[C@H](NC(=O)C1CCC(F)(F)CC1)c1ccccc1 (stereo in doubt) | 0.3 z-score and -0.605 z-score
CN(C)CCOC(c1ccccc1)c1ccccc1.Cn1c(=O)c2[nH]c(Cl)nc2n(C)c1=O | 3.7 z-score
COC(=O)Nc1nc2cc(C(=O)c3cccs3)ccc2[nH]1 | -4 z-score and -5.49 z-score
CN(c1nccc(=O)[nH]1)C1CCN(c2nc3ccccc3n2Cc2ccc(F)cc2)CC1 | 1.51 z-score
O=C(O)c1cc(=O)c2c(Cl)cc(Cl)cc2[nH]1 | 0.471 z-score
Cc1cccc(C)c1OCC(C)N (centres unmarked) | 3.22 z-score and 3.29 z-score

Set 4 — observed: binding; mode: competitor; method: NanoBRET; cells: HEK293
SMILES: CCC(=O)N1CCN(c2nc(OC[C@@H]3CCCN3C)nc3c2CCN(c2cccc4cccc(Cl)c24)C3)C[C@@H]1CC#N
KRAS G13D: GTPase KRas (KRAS, Homo sapiens, UniProt P01116, G13D)
target | conditions | normalized BRET
GTPase KRas (KRAS, Homo sapiens, UniProt P01116, Q61R) | 5.08 nM | 105% and 109% and 99.5%
KRAS G13D | 3.7 µM | 28.3% and 23.3% and 24.8%
GTPase KRas (KRAS, Homo sapiens, UniProt P01116, G12D) | 412 nM | 94.4% and 96.7% and 92.3%
KRAS G13D | 11.1 µM | 15.5% and 10.5% and 13%
GTPase KRas (KRAS, Homo sapiens, UniProt P01116, Q61L) | 15.2 nM | 94% and 107% and 94.9%

For quick reference, copied from above (set 2):
Structure (SMILES) | remaining activity [%]
O=C(O)[C@]1(Cc2cccc(Nc3nccs3)n2)CC[C@@H](Oc2cccc(Cl)c2F)CC1 | 55.6
CCC(C)(Oc1ccc(C2(c3ccc(OC(C)(CC)C(=O)O)cc3)CCCCC2)cc1)C(=O)O (centres unmarked) | 66.2
Cc1noc(C)c1S(=O)(=O)Nc1ccc(C(=O)Nc2ccc(Br)cc2)cc1 | 56.4
Cc1nc(N=Nc2cc(S(=O)(=O)O)c3cc([N+](=O)[O-])cc(S(=O)(=O)O)c3c2)c(COP(=O)(O)O)c(C=O)c1O | 46.6
COc1cccc2c1C(=O)c1c(O)c3c(c(O)c1C2=O)C[C@@](O)(C(=O)CO)C[C@@H]3O[C@H]1C[C@H](N)[C@@H](O)[C@H](C)O1 | 46.5
